Assay results of several laboratories.
Values joined by “and” are separate records of one study, mostly repeats; a detail may differ. ± gives the spread as reported.

CCN1CCN(Cc2ccc(Nc3ncc(F)c(-c4cc(F)c5nc(C)n(C(C)C)c5c4)n3)nc2)CC1
Vss/F (healthy human, fasted, plasma; oral, 200 mg, capsule): 1930 L

C=CCN1CC(=O)N2[C@@H](Cc3ccc(O)cc3F)C(=O)N(Cc3cccc(N4CC(N5CCN(CC)CC5)C4)n3)C[C@@H]2N1C(=O)NCc1ccccc1
treatment-related diarrhoea (advanced solid tumour patients; oral, 120 mg twice daily, grade ≥3, dose-escalation): 0%

Cc1nc(-c2ccc(OCC(C)C)c(C#N)c2)sc1C(=O)O
body weight (KM mouse, chronic hyperuricaemia model; dose not given, day 21): 35.2 g and 39.2 g and 43 g and 37.6 g and 32.8 g and 32.4 g

Cl.[2H]C([2H])([2H])CC(=O)c1cnc(NC(=O)C2CC2)cc1Nc1cccc(-c2ncn(C([2H])([2H])[2H])n2)c1OC
Vss/F (human, fasted, multiple dose; oral, 40 mg twice daily, tablet, day 14, geometric mean): 221 L

Cc1ncc(CO)c(CN)c1O
log2 fold change (binding, MIDAS equilibrium dialysis LC-MS; A2AR-BRIL thermostabilized; concentration not given; relative to: no-protein control): -0.0952

NC1(C(=O)N[C@@H](CCO)c2ccc(Cl)cc2)CCN(c2nc[nH]c3nccc2-3)CC1
incidence of Anaemia (metastatic CRPC patients; 320 mg b.i.d., any grade, treatment-related, added: enzalutamide 160 mg daily): 0%

CO[C@H]1C[C@@H]2CC[C@@H](C)[C@@](O)(O2)C(=O)C(=O)N2CCCC[C@H]2C(=O)O[C@H]([C@H](C)C[C@@H]2CC[C@@H](OC(=O)NCCOCCOCCOCCOCCOCCOCCOCCOCCC(=O)N3CCc4cc(Cn5nc(-c6ccc7oc(N)nc7c6)c6c(N)ncnc65)ccc4C3)[C@H](OC)C2)C[C@@H](O)[C@H](C)/C=C(\C)[C@@H](O)[C@@H](OC)C(=O)[C@H](C)C[C@H](C)/C=C/C=C/C=C/1C
Cmax (human patients, plasma; intravenous, 10 mg, cycle 1 day 1, weekly dosing, 1 h infusion, arithmetic mean): 362 ng/mL

CC(C)(C(=O)N1CCOc2c(C#N)cncc2C1)C(F)F
subjects with TEAE (refers to: eye disorders; healthy humans, both sexes; oral, 20 mg single dose): 0%

Cc1c(-c2ccc(N3CCc4cccc(C(=O)Nc5nc6ccccc6s5)c4C3)nc2C(=O)O)cnn1CC12CC3(C)CC(C)(C1)CC(OCCNCC[C@H](O)CO)(C3)C2
dP/dt at 50 change (beagle dog, male, anaesthetised; intravenous infusion, 0.3 mg/kg/min, 45 min; relative to: vehicle): -23%

CN(C(=O)n1cnc(-c2cccnc2)c1)[C@H]1CC[C@H](O)CC1
tissue concentration (rat, cortex; oral, 10 mg/kg daily for 5 days, 72 h): 14.2 ± 1 ng/g

CC[C@H](C)[C@H](NC(=O)CN)C(=O)N[C@@H](CC(C)C)C(=O)N[C@@H](C)C(=O)N[C@@H](C)C(=O)N[C@H](C(=O)N[C@@H](CCCCN)C(=O)N[C@@H](C)C(=O)N[C@H](C(=O)N[C@@H](C)C(=O)N[C@@H](CCCCN)C(=O)N[C@@H](C)C(=O)N[C@@H](C)C(=O)NCC(N)=O)[C@@H](C)CC)[C@@H](C)CC
helix content (circular dichroism; 10 mM SDS; 100 µM): 28%

CCCCC[C@H](O)CC[C@@H]1[C@H]2Cc3cccc(OCC(=O)O)c3C[C@H]2C[C@H]1O
geometric mean half-life (LC-MS/MS; Japanese PAH patients under 56.7 kg, plasma; inhaled, 54 µg): 45 min

O=C(O)CCC(=O)O.[2H]C([2H])([2H])Oc1cc(C)c2[nH]ccc2c1CN1CC[C@@H](C2CC2)C[C@H]1c1ccc(C(=O)O)cc1
subjects with papular urticaria TEAE (multiple ascending dose; healthy Chinese subjects; 125 mg twice daily): 0%

C[C@@H](c1ncncc1F)[C@](O)(Cn1cncn1)c1ccc(F)cc1F
drug-related TEAE incidence (refers to: blurred vision; human; oral, 200 mg): 0%

CCCC(CCC)C(=O)Oc1cccc(C(O)CCN)c1.O=CO (centres unmarked)
ERG, scotopic, rod b-wave (Abca4-/-Rdh8-/- mice, photic damage; oral, 20 mg/kg, 7 days, flash intensity 0.1): 126 µV and 100 µV and 89.8 µV and 123 µV and 141 µV and 156 µV

O=C(Nc1nc2cccc(-c3ccc(CN4CCS(=O)(=O)CC4)cc3)n2n1)C1CC1
patients with increased blood triglycerides (rheumatoid arthritis patients; oral, 100 mg twice daily, 4 weeks, TEAE regardless of relatedness): 0%

Cc1nc2cccc(OCC(C)(C)C(=O)NC(C)C)c2c(N)c1C(=O)O
PCE/NCE ratio (male Swiss albino CD-1 mouse, bone marrow; oral, 1000 mg/kg, 48 h): 0.85

COc1cc(C(=O)NC2CCN(C)CC2)c(F)cc1Nc1ncc(C(F)(F)F)c(Oc2cccc3c2C(=O)N(C)C3)n1
dose-normalised AUC(tau) at steady state (human patients, plasma; oral, 25 mg once daily repeated, geometric mean): 204 nmol·h/L per mg

C=C[C@@](C)(/C=C/c1ccc(O)cc1)CCC=C(C)C
accuracy (three freeze-thaw cycles; rat plasma; 1000 ng/mL, -70 °C freeze): 89.6%

CCc1nc(C(N)=O)c(Nc2ccc(N3CCC(N4CCN(C)CC4)CC3)c(OC)c2)nc1NC1CCOCC1
autosampler stability accuracy (processed mouse plasma; 15 ng/mL, 24 h, 4 °C): 94.9%

COC(=O)C1=CO[C@@H](O[C@@H]2O[C@H](CO)[C@@H](O)[C@H](O)[C@H]2O)[C@@H]2C(CO)=CC[C@H]12
accuracy (post-procedure stability; rat plasma; 1000 ng/mL, 3 h, room temperature): 96.8%

COc1ncc(-c2nc3c(n2C(C)C)[C@H](c2ccc(Cl)cc2)N(c2cc(Cl)cn(C)c2=O)C3=O)c(OC)n1
AUC(0-last) (LC-MS/MS, noncompartmental; human, plasma; oral, 200 mg, cycle 2 day 1, high-dose, geometric mean): 14700 ng·h/mL

CCN(CC)CCOC(=O)c1ccc(N)cc1
remaining compound (LC-MS; BALB/c nude mouse, plasma; 2 µM, 0.75 h): 0.07%

CC(C)(Sc1ccncc1-c1ccc(C#N)c2ccccc12)C(=O)O
amount excreted in urine (0-24 h) (human, urine; oral, 5 mg, added: febuxostat 0 mg): 87.2 µg

CCO[C@H]1CCN(Cc2c(OC)cc(C)c3[nH]ccc23)[C@H](c2ccc(C(=O)O)cc2)C1
unbound Cmax (human severe hepatic impairment, plasma; oral, 200 mg single dose, mean): 1470 ng/mL

Cc1cc(-c2nnc(N)nc2-c2ccc(F)cc2)cc(Cl)n1
patients with immune-mediated AE (refers to: Colitis; IO-naive colorectal cancer patients; oral, dose not given, treatment-related, all grades): 0%

CNc1ccc(-c2nc3ccc(O)cc3s2)cc1 [carbon-11 labelled]
SUV (ex vivo biodistribution; B6SJL mouse, normal, feces; intravenous, 30 min): 0.716 ± 0.316

CNC(=O)c1ccc(-c2cnc3ncc(Cc4ccc5ncccc5c4)n3n2)cc1F
patients with adverse event (refers to: Pyrexia; hepatocellular carcinoma patients; oral, 600 mg twice daily, expansion cohort, grade 3-4): 0%

COc1ccc2nc([S@@+]([O-])Cc3ncc(C)c(OC)c3C)[nH]c2c1
AUC ratio (human, dried blood spots; 10 mg omeprazole, median, added: voriconazole; relative to: with voriconazole over alone): 3.4

c1ccc2cc3c(ccc4ccccc43)cc2c1
literature range factor (PDMS-water partitioning; PAH compilation; relative to: maximum over minimum K): 12

C[C@@H]1COCCN1c1cc(C2([S@](C)(=N)=O)CC2)nc(-c2cc[nH]c3nccc2-3)n1
Pruritus incidence (Japanese advanced solid tumour patients; oral, 240 mg twice daily, CTCAE grade ≥3): 0%

COCc1cc(C(=O)Nc2cc([C@H]3CC[C@@H](OC(=O)NC(C)C)C3)[nH]n2)n(C)n1
AUC(0-24h) (OVCAR-3 xenograft, NOD/SCID gamma mice, plasma; oral, 15 twice daily, PK/PD study): 2.11 µM·h

O=C(N[C@H](Cc1c[nH]c2ccccc12)C(=O)Nc1ccncc1)c1ccc(-c2cc(C(F)(F)F)ccc2F)cc1F
concentration (Swiss Webster mouse, female, lung; oral, 50 mg/kg, 2 h, 20% Kolliphor vehicle): 54.2 µM

C[C@@H](N)C1CCN(S(=O)(=O)c2cccc3cnccc23)CC1
TEAE incidence (refers to: Tachycardia; healthy volunteers; 250 mg, fasted): 0%

O=C(Cc1ccc2ccccc2c1)Nc1cc(C2CCC2)[nH]n1
accuracy (mouse plasma; 0.5 ng/mL, -80 °C, freeze-thaw stability, added: 3 freeze-thaw cycles): 104%

C[C@H]1Oc2cc(cnc2N)-c2c(nn(C)c2C#N)CN(C)C(=O)c2ccc(F)cc21
free plasma concentration (Balb/c nude mouse female, plasma; 5 mg/kg single dose, 1 h): 0.898 µM

CN[C@@H]1COc2c(S(=O)(=O)NC(=O)Nc3c4c(cc5c3CCC5)CCC4)cnn2C1
amount excreted in urine (0-48 h) (human, urine; oral, 450 mg, 0-48 h): 81 mg

O=C(c1nc2n(n1)[C@H](c1ccccc1)C[C@@H]2F)C1CC1
renal clearance (human, fed; 75 mg single dose): 0.198 mL/min

Cc1cc2nc3c(=O)[nH]c(=O)nc-3n(C[C@H](O)[C@H](O)[C@H](O)COP(=O)(O)O)c2cc1C
log2 fold change (binding, MIDAS equilibrium dialysis LC-MS; A2AR-BRIL thermostabilized; concentration not given; relative to: no-protein control): -0.322

COc1ccc2c(=O)n(C)c(-c3ccccc3)nc2c1
tissue concentration (Sprague-Dawley rat, male, testis; oral, 30 mg/kg, 2 h): 2.93 ng/mL

Cc1ccc(Sc2ccccc2N2CCNCC2)c(C)c1
adverse event incidence (healthy adult men; oral, 5 mg single dose, 10 days): 0%

CNCCOC12CC3(C)CC(C)(CC(Cn4ncc(-c5ccc(N6CCc7cccc(C(=O)Nc8nc9ccccc9s8)c7C6)nc5C(=O)O)c4C)(C3)C1)C2
cardiac output change (anaesthetised male beagle dogs; intravenous bolus, 0.03 mg/kg, 15 min; relative to: baseline): 4%

Cc1cc(-c2nccc3c2ccn3CC(=O)Nc2ccc(-c3cnccn3)cn2)ccn1
subjects with ventricular tachycardia (human; 15 mg once daily, multiple ascending dose): 0%

CCc1cc(C(=O)NC)c2nccc(N3CCc4c(cc(Cn5ccnc5)cc4-c4cn(C)nc4C(F)(F)F)C3=O)c2c1
serum LDL level (Sprague Dawley rats; oral, 50 mg/kg once daily, 7 days): 0.7 ± 0.09 mmol/L

For quick reference, copied from above:
CCO[C@H]1CCN(Cc2c(OC)cc(C)c3[nH]ccc23)[C@H](c2ccc(C(=O)O)cc2)C1
unbound Cmax (human severe hepatic impairment, plasma; oral, 200 mg single dose, mean): 1470 ng/mL

Cc1cc(-c2nnc(N)nc2-c2ccc(F)cc2)cc(Cl)n1
patients with immune-mediated AE (refers to: Colitis; IO-naive colorectal cancer patients; oral, dose not given, treatment-related, all grades): 0%

CNc1ccc(-c2nc3ccc(O)cc3s2)cc1 [carbon-11 labelled]
SUV (ex vivo biodistribution; B6SJL mouse, normal, feces; intravenous, 30 min): 0.716 ± 0.316

CNC(=O)c1ccc(-c2cnc3ncc(Cc4ccc5ncccc5c4)n3n2)cc1F
patients with adverse event (refers to: Pyrexia; hepatocellular carcinoma patients; oral, 600 mg twice daily, expansion cohort, grade 3-4): 0%

COc1ccc2nc([S@@+]([O-])Cc3ncc(C)c(OC)c3C)[nH]c2c1
AUC ratio (human, dried blood spots; 10 mg omeprazole, median, added: voriconazole; relative to: with voriconazole over alone): 3.4

c1ccc2cc3c(ccc4ccccc43)cc2c1
literature range factor (PDMS-water partitioning; PAH compilation; relative to: maximum over minimum K): 12

C[C@@H]1COCCN1c1cc(C2([S@](C)(=N)=O)CC2)nc(-c2cc[nH]c3nccc2-3)n1
Pruritus incidence (Japanese advanced solid tumour patients; oral, 240 mg twice daily, CTCAE grade ≥3): 0%
